# Assay results gathered from unrelated publications.
# Protocols differ between the studies behind these lines. ± marks the error that the study gave.
# Sequence of UniProt Q96SB4 (whole entry, looked up): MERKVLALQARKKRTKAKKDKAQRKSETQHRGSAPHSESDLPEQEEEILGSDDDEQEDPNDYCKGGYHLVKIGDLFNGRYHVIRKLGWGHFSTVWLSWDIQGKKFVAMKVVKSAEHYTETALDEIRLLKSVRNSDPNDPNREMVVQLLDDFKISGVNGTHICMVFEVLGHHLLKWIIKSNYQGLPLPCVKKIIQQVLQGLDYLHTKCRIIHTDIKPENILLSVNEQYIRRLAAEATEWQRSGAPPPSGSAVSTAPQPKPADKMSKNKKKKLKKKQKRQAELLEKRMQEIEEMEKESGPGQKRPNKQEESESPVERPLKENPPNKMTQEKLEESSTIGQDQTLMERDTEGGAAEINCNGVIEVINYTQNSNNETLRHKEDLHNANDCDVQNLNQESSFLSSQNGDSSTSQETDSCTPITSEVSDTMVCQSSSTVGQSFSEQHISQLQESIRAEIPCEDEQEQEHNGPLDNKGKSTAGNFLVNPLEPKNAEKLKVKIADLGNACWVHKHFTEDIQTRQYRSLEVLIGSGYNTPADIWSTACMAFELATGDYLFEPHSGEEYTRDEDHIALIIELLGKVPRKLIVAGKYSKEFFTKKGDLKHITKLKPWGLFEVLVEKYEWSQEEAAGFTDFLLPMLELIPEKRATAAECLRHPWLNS
Compound,tested on,test,system,setting,endpoint,value
C[C@H]1O[C@H](O[C@H]2[C@H](O)[C@@H](O)[C@@H](O[C@H]3[C@H](O)[C@@H](O)C(O)O[C@@H]3CO)O[C@@H]2CO)[C@H](O)[C@@H](O)[C@@H]1N[C@H]1C=C(CO)[C@@H](O)[C@H](O)[C@H]1O (some centres unmarked),human lysosomal acid alpha-glucosidase,inhibitor,,together with: pNPG substrate,IC50,10.7 ± 0.25 µg/mL
CCOc1c([C@H](C)n2nc(C)c3c(N)ncnc32)cc(Cl)c(F)c1[C@@H]1CNC(=O)C1,,,"patients with indolent lymphoma, plasma","oral, 30 mg, day 15, monotherapy",half-life geometric mean,630 min
Nc1nn2c(-c3ccco3)cc(-c3ccc(OCc4ccccc4)cc3)nc2c1N=Nc1ccc(F)cc1,Candida albicans,broth microdilution,ATCC 10231,,MFC/MIC ratio,4
COc1cc(-c2nc3ccccc3c(=O)n2Nc2ccc([N+](=O)[O-])cc2[N+](=O)[O-])ccc1OCc1cn(CC(=O)Nc2ccc(C)cc2)nn1,mushroom tyrosinase,enzyme activity,,"40 µM, together with: L-DOPA",inhibition,45.2 ± 2.39%
COc1cc(/C=N/NC(=S)NN=Cc2scnc2C)ccc1Oc1ccnc2cc(Cl)ccc12,human lysosomal acid alpha-glucosidase,inhibitor,,together with: pNPG substrate,IC50,9.12 ± 0.28 µg/mL
Cc1ccc(-c2cc(-c3ccc(OCc4ccccc4)cc3)nc3c(N=Nc4ccc(F)cc4)c(N)nn23)cc1,Bacillus pumilus,broth microdilution,MTCC 2296,,MIC,31.3 µg/mL
COc1cc(-c2nc3ccccc3c(=O)n2Nc2ccc([N+](=O)[O-])cc2[N+](=O)[O-])ccc1OCc1cn(CC(=O)Nc2ccc(Br)cc2)nn1,mushroom tyrosinase,enzyme activity,,"40 µM, together with: L-DOPA",inhibition,41.6 ± 2.39%
O=C(Nc1cc(-c2ccc(Cl)cc2)[nH]n1)C1CCCCC1,"SRPK1 (Homo sapiens, UniProt Q96SB4)","enzyme activity, Dundee kinase panel",,10 µM,remaining activity,75%

# A few entries again:
Compound,tested on,test,system,setting,endpoint,value
CCOc1c([C@H](C)n2nc(C)c3c(N)ncnc32)cc(Cl)c(F)c1[C@@H]1CNC(=O)C1,,,"patients with indolent lymphoma, plasma","oral, 30 mg, day 15, monotherapy",half-life geometric mean,630 min
